Measurements gathered from unrelated publications.
Several values in a cell are separate wells, animals, samples, runs or records. ± gives the spread as reported.
NPFFR1: Neuropeptide FF receptor 1 (NPFFR1, Homo sapiens, UniProt Q9GZQ6)
UniProt Q9GZQ6, sequence (whole entry, looked up): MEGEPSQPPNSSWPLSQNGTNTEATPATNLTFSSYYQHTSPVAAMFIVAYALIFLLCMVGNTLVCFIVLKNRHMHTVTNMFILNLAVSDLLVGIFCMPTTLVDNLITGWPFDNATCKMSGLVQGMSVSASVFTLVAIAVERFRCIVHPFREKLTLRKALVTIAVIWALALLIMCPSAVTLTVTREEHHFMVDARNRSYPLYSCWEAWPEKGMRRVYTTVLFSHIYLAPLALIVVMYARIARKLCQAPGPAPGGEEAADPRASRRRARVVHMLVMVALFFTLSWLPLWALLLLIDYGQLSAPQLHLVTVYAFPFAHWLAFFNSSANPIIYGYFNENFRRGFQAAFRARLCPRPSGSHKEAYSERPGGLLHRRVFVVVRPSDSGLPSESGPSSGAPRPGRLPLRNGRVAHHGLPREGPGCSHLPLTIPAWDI
HTR6: 5-hydroxytryptamine receptor 6 (HTR6, Homo sapiens, UniProt P50406)
UniProt P50406, sequence (whole entry, looked up): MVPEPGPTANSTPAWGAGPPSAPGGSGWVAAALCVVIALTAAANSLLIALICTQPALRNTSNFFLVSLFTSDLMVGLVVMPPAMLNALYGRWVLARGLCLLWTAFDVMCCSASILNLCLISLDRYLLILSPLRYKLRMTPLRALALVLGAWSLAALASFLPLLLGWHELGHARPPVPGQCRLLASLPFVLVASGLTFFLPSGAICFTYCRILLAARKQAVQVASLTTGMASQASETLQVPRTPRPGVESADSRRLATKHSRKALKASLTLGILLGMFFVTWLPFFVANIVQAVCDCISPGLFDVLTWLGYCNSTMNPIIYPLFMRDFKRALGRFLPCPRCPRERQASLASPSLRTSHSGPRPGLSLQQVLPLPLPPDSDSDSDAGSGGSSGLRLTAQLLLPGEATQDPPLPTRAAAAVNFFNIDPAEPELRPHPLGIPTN
Oprd1: Delta-type opioid receptor (Oprd1, Rattus norvegicus, UniProt P33533)
UniProt P33533, sequence (whole entry, looked up): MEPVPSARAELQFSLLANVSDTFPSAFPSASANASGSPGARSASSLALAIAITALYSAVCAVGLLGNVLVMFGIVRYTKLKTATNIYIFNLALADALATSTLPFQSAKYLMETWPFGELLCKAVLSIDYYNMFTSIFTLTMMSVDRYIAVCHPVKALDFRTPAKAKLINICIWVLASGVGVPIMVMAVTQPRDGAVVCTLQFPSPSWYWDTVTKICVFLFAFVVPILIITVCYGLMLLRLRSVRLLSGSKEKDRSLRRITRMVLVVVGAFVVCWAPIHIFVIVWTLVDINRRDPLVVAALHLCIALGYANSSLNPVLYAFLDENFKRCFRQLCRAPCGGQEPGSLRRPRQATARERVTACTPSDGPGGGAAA
UniProt P22303, sequence (whole entry, looked up): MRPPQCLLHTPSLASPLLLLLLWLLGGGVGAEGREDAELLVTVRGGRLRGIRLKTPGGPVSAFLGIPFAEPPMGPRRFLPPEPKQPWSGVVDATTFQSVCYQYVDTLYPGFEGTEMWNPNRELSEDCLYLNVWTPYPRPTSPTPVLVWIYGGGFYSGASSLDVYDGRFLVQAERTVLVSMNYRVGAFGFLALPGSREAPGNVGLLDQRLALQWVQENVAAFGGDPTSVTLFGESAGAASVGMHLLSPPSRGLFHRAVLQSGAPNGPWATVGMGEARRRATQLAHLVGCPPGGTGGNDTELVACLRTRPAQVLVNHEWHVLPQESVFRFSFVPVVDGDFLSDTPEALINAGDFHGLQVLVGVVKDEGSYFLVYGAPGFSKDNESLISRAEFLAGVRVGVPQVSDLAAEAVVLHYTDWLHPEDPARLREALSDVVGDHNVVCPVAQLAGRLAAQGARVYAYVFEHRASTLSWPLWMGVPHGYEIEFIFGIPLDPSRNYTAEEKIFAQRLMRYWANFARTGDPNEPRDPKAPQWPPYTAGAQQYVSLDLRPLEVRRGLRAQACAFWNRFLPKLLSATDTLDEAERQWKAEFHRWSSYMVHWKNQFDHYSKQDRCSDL
UniProt P35348, sequence (whole entry, looked up): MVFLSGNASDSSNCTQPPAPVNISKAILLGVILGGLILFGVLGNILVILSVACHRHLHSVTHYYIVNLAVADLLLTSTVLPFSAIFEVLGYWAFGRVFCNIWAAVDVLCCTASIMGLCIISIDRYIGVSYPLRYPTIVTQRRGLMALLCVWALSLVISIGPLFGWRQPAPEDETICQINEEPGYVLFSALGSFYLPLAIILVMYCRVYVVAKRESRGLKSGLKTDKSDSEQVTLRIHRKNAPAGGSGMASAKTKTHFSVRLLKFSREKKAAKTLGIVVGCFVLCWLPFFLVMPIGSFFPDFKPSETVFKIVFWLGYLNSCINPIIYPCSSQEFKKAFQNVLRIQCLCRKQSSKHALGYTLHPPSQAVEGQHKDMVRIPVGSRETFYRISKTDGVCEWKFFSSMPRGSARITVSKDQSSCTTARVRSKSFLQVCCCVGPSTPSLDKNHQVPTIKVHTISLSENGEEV
UniProt P05181, sequence (whole entry, looked up): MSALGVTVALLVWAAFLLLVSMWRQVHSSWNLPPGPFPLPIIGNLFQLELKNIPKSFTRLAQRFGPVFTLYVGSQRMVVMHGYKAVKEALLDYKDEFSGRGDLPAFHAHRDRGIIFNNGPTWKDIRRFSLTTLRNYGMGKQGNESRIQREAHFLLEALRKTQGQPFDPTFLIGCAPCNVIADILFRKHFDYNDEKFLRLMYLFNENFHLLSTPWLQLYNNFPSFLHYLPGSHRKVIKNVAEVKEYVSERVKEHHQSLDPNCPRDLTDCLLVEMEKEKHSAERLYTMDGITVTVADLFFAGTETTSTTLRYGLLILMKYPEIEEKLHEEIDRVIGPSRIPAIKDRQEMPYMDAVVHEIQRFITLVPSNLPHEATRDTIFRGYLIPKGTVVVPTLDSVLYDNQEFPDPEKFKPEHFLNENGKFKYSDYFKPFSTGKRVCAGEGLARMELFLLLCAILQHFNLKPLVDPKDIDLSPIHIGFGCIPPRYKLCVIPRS
UniProt Q9NSD7, sequence (whole entry, looked up): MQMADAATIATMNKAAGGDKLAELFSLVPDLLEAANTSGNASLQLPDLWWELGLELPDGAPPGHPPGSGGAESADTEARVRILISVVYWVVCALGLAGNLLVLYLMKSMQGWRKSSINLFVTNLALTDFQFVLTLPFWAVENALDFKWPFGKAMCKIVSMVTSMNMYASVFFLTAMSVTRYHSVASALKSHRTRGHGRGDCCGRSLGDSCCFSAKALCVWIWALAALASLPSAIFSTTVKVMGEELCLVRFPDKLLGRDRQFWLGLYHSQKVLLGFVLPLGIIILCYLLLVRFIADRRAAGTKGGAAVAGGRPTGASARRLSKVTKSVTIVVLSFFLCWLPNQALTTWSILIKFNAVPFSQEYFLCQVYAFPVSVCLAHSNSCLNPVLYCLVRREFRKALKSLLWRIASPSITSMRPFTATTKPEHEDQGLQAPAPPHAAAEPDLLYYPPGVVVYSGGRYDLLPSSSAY
UniProt P29117, sequence (whole entry, looked up): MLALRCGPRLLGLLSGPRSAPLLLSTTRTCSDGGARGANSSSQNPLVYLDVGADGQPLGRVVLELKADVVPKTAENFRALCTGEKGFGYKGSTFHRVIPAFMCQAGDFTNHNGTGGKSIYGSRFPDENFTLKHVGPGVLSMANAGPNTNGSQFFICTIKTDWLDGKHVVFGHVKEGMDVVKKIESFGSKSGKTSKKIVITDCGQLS
UniProt Q96NY8, sequence (whole entry, looked up): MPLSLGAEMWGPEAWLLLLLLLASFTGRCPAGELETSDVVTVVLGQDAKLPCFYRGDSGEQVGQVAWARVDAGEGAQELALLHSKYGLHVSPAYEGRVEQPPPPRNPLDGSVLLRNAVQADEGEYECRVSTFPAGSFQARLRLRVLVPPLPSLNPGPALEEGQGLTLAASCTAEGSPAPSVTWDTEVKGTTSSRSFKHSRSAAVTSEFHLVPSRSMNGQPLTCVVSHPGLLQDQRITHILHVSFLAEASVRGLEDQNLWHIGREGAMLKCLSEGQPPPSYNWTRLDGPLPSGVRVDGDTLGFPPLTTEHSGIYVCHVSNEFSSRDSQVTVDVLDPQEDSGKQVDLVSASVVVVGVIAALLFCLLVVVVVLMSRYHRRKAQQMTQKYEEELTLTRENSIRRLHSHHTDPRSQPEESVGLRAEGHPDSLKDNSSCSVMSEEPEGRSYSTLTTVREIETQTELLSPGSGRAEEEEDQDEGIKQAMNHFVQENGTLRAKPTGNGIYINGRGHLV
UniProt P50391, sequence (whole entry, looked up): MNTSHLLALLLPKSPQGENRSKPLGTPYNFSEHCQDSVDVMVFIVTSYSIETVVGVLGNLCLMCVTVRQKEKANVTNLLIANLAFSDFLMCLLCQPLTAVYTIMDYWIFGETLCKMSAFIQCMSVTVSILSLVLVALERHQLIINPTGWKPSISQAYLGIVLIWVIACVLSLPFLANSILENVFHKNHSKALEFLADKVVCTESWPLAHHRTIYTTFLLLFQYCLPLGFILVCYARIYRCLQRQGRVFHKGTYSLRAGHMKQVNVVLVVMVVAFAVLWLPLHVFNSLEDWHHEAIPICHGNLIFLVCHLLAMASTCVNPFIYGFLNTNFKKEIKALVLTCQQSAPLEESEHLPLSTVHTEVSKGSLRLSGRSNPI
UniProt P00761, sequence (whole entry, looked up): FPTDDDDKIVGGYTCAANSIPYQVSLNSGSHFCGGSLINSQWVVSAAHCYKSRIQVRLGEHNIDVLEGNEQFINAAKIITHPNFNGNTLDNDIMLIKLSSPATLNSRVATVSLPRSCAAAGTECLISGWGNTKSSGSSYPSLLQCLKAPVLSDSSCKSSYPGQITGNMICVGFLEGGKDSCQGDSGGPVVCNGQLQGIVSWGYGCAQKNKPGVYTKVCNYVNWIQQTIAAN

SMILES = [2H]C([2H])(C)N1CCN(C2=Nc3cc(Cl)ccc3Nc3ccccc32)CC1; target or system = ADRA1A (Homo sapiens, UniProt P35348); test = ligand displacement, radioligand; measurement = Ki; result = 0.067 µM
SMILES = CC(C)C[C@@H]1NC(=O)[C@H](Cc2ccc(O)cc2)NC(=O)[C@H](CCCNC(=N)N)NC(=O)[C@H](C(C)C)NC(=O)[C@@H]2CCCN2C(=O)[C@H](Cc2ccccc2)NC(=O)[C@H](C)NC(=O)[C@H](CC(N)=O)NC(=O)[C@H](Cc2ccc(OS(=O)(=O)F)cc2)NC(=O)[C@@H](Cc2ccccc2)NC(=O)CSC[C@@H](C(=O)NCCOCCOCC(=O)NCCOCCOCC(=O)N[C@@H](CCCCN=[N+]=[N-])C(N)=O)NC(=O)[C@H](Cc2c[nH]c3ccccc23)NC(=O)[C@H](CCCCN)NC(=O)[C@H](CCCCN)NC1=O; target or system = Nectin-4, extracellular domain (Homo sapiens, UniProt Q96NY8); test = covalent binder, SPR single-cycle kinetics, two-state model; system = PBS-T; conditions = 800 s contact, 200 s dissociation, 25 °C; measurement = Ki; result = 3.58 µM
SMILES = CC[C@H](C)[C@@H]1NC(=O)[C@H](COP(=O)(O)O)NC(=O)[C@H](CCSC)NC(=O)CSC[C@@H](C(N)=O)NC(=O)[C@H](C)NC(=O)[C@H](C(C)C)NC(=O)[C@H](Cc2ccc(OP(=O)(O)O)cc2)NC1=O; target or system = PPM1D (Homo sapiens, UniProt O15297); test = phosphatase activity, inhibitor, malachite green; conditions = together with: ATM pS1981 peptide; measurement = Ki; result = ~5 µM and 5 µM
SMILES = COC(=O)Cc1cn2c(n1)[C@H](NC(C)=O)[C@@H](O)[C@H](O)[C@H]2CO; target or system = human lysosomal hexosaminidase A/B; measurement = Ki; result = 0.00055 ± 5e-05 µM
SMILES = COc1ccc(CC[C@H]2OC(=O)[C@@H]3CCCCN3C(=O)C(=O)C(C)(C)COC(=O)/C=C/CCN(C)C(=O)[C@H](CC(C)C)N(C)C(=O)[C@@H]3CCCN3C(=O)[C@H](Cc3ccccc3)N(C)C(=O)[C@H](c3ccccc3)NC(=O)CCC(=O)Nc3cccc2c3)cc1OC; target or system = FKBP1A (Homo sapiens, UniProt P62942); test = enzyme activity, inhibitor; measurement = Ki; result = 0.0037 µM
SMILES = CNC(=O)C1CCN(c2ccccc2NC(=O)c2ccc(-c3cc(O)ccc3C)c(C)n2)CC1; target or system = LCK (Homo sapiens, UniProt P06239); test = cell-free assay, TR-FRET; measurement = Ki; result = 0.001 µM
SMILES = NCC(=O)NCC1(Nc2ccccc2)CCN(Cc2ccccc2)CC1; target or system = NPFFR1; test = cell-free assay; measurement = Ki; result = 3.43 µM
SMILES = COc1cc2c(cc1OC)C(=O)C(=Cc1ccc(N3CCN(C)CC3)cc1)C2; target or system = ACHE (Homo sapiens, UniProt P22303); test = enzyme activity, inhibitor; measurement = Ki; result = 0.157 µM
SMILES = COc1ccc2ccc3c(c2c1)C=[N+]1C2CCCCC2[N+]2=Cc4cccc(OC)c4[O][Au-]21[O]3.F[P-](F)(F)(F)(F)F (centres unmarked); target or system = Klebsiella pneumoniae thioredoxin reductase; test = competitive inhibitor; system = carbapenem-resistant; conditions = together with: DTNB; measurement = Ki; result = 13 µM
SMILES = CC[C@H](C)[C@@H]1NC(=O)[C@@H](NC(=O)[C@H](CCC(=O)O)NC(=O)[C@H](CCCNC(=N)N)NC(=O)CNC(=O)[C@H](CO)NC(=O)[C@H](CC(C)C)NC(=O)[C@H](CCCNC(=N)N)NC(=O)[C@@H](NC(=O)CNC(=O)[C@H](Cc2ccc(O)cc2)NC(=O)[C@@H]2CCCN2C(=O)[C@H](C)NC(=O)[C@H](C)NC(=O)[C@@H](N)CCCNC(=N)N)C(C)C)CCCCNC(=O)C[C@@H](C(=O)N[C@H](C(=O)N[C@@H](Cc2ccccc2)C(=O)N[C@H](C(=O)N[C@@H](CO)C(=O)NCC(=O)NCC(=O)N[C@@H](CO)C(=O)N[C@@H](CCCNC(=N)N)C(=O)N[C@@H](Cc2c[nH]c3ccccc23)C(=O)O)[C@@H](C)O)[C@@H](C)CC)NC(=O)[C@H](C)NC(=O)[C@H](CCCNC(=N)N)NC1=O; target or system = RXFP3 (Homo sapiens, UniProt Q9NSD7); test = ligand displacement; measurement = Ki; result = 1.29 µM
SMILES = CCCCCCCCCCCCCC(=O)NCC(=O)NCC(=O)N[C@@H](CO)C(=O)NCC(=O)N[C@@H](CO)C(=O)NCC(=O)N[C@H]1CSSC[C@@H]2NC(=O)CNC(=O)[C@H](C)NC(=O)[C@H](CC(C)C)NC(=O)[C@@H]3CSSC[C@@H](C(=O)NCC(=O)O)NC(=O)[C@H](Cc4ccccc4)NC(=O)CNC(=O)[C@H](CC(N)=O)NC(=O)[C@@H]4CCCN4C(=O)CNC(=O)[C@H](CSSC[C@H](NC(=O)[C@H](CCCNC(=N)N)NC(=O)[C@H](CCSC)NC(=O)[C@H](CC(C)C)NC(=O)[C@H]([C@@H](C)CC)NC(=O)[C@H](CCCNC(=N)N)NC(=O)[C@@H]4CCCN4C1=O)C(=O)N[C@@H](CCCCN)C(=O)N[C@@H](CCC(N)=O)C(=O)N[C@@H](CC(=O)O)C(=O)N[C@@H](CO)C(=O)N[C@@H](CC(=O)O)C(=O)N3)NC(=O)[C@H](C(C)C)NC2=O; target or system = Trypsin (Sus scrofa, UniProt P00761); test = enzyme activity, inhibitor, fluorescence; conditions = with preincubation; measurement = Ki; result = 0.0001 µM
SMILES = OC[C@@H]1[C@@H](O)[C@H](O)[C@@H](O)[C@H]2N[C@@H]12; target or system = GBA1 (Homo sapiens, UniProt P04062, R534H); test = enzyme activity, inhibitor; measurement = Ki; result = 6.8 µM
SMILES = CN1CCN(c2cccc3c2ccn3C(=O)c2ccccc2)CC1; target or system = HTR6; test = ligand displacement, radioligand; conditions = cell membranes; measurement = Ki; result = 2.2 µM
SMILES = Cc1cc(O)cc(C)c1CC(N)C(=O)NC1CCNc2ccc(Cn3cncn3)cc21 (centres unmarked); target or system = Oprd1; test = ligand displacement, radioligand; conditions = cell membranes; measurement = Ki; result = 0.05 µM
SMILES = Cc1cc(O)cc(C)c1CC(N)C(=O)NC1CCNc2c(C)cc(Cc3ccccc3)cc21 (centres unmarked); target or system = Oprd1; test = ligand displacement, radioligand; conditions = cell membranes; measurement = Ki; result = 0.0019 µM
SMILES = CN1CCN(c2cccc3c2ccn3Cc2ccccc2)CC1; target or system = HTR6; test = ligand displacement, radioligand; conditions = cell membranes; measurement = Ki; result = 0.024 µM
SMILES = N=C(N)NCCC[C@@H]1NC(=O)[C@H](CCCCNC(=O)CC[C@H](NC(=O)CCOCCOCCOCCOCCNC(=O)CN2CCN(CC(=O)O)CCN(CC(=O)O)CCN(CC(=O)O)CC2)C(=O)NCCCC[C@@H]2NC(=O)[C@@H](Cc3ccccc3)NC(=O)[C@H](CC(=O)O)NC(=O)CNC(=O)[C@H](CCCNC(=N)N)NC2=O)NC(=O)[C@@H](Cc2ccccc2)NC(=O)[C@H](CC(=O)O)NC(=O)CNC1=O [indium-111 labelled]; system = octanol/water; measurement = log P; result = -3.22 ± 0.09
SMILES = Cc1cc(O)cc(C)c1CC(N)C(=O)NC1CCNc2c(CN3CCCCC3)cc(Cc3ccccc3)cc21 (centres unmarked); target or system = Oprd1; test = ligand displacement, radioligand; conditions = cell membranes; measurement = Ki; result = 0.0044 µM
SMILES = CN[C@](C)(C[18F])C(=O)O; target or system = DU-145 tumour model; system = host not given, liver; conditions = 30 min, tumour-bearing; measurement = tracer uptake; result = 5.5 %ID/g
SMILES = C/C=C/C[C@@H](C)[C@@H](O)[C@H]1C(=O)N[C@@H](CC)C(=O)N(C)C(Cc2ccc(C(=O)NCCCCCCNC(=O)OCC3c4ccccc4-c4ccccc43)cc2)C(=O)N(C)[C@@H](CC(C)C)C(=O)N[C@@H](C(C)C)C(=O)N(C)[C@@H](CC(C)C)C(=O)N[C@@H](C)C(=O)N[C@H](C)C(=O)N(C)[C@@H](CC(C)C)C(=O)N(C)[C@@H](CC(C)C)C(=O)N(C)[C@@H](C(C)C)C(=O)N1C (some centres unmarked); target or system = Peptidyl-prolyl cis-trans isomerase F, mitochondrial (Ppif, Rattus norvegicus, UniProt P29117); test = PPIase activity, inhibitor; conditions = pH 7.5, 15 °C; measurement = Ki; result = 0.16 µM
SMILES = N=C(N)Nc1ccc(C(=O)NCC2(Nc3ccccc3)CCN(Cc3ccccc3)CC2)cc1; target or system = NPFFR1; test = cell-free assay; measurement = Ki; result = 1.97 µM
SMILES = CC(=O)N[C@@H](CCCNC(=N)N)C(=O)N[C@@H](Cc1ccc(O)cc1)C(=O)N[C@@H](CCCN/C(N)=N/C(=O)NCCCCN)C(=O)N[C@@H](CC(C)C)C(=O)N[C@@H](CCCNC(=N)N)C(=O)N[C@@H](Cc1ccc(O)cc1)C(N)=O; target or system = NPY4R (Homo sapiens, UniProt P50391); test = ligand displacement, radioligand; measurement = Ki; result = 0.00287 µM
SMILES = N=C(N)NCCC[C@@H]1NC(=O)[C@H](CCCCNC(=O)CNC(=O)CNC(=O)CNC(=O)CC[C@H](NC(=O)CCOCCOCCOCCOCCNC(=O)CC[C@H](NC(=O)CN2CCN(CC(=O)O)CCN(CC(=O)O)CCN(CC(=O)O)CC2)C(=O)NCCOCCOCCOCCOCCC(=O)N[C@@H](CCC(=O)NCC(=O)NCC(=O)NCC(=O)NCCCC[C@@H]2NC(=O)[C@@H](Cc3ccccc3)NC(=O)[C@H](CC(=O)O)NC(=O)CNC(=O)[C@H](CCCNC(=N)N)NC2=O)C(=O)NCC(=O)NCC(=O)NCC(=O)NCCCC[C@@H]2NC(=O)[C@@H](Cc3ccccc3)NC(=O)[C@H](CC(=O)O)NC(=O)CNC(=O)[C@H](CCCNC(=N)N)NC2=O)C(=O)NCC(=O)NCC(=O)NCC(=O)NCCCC[C@@H]2NC(=O)[C@@H](Cc3ccccc3)NC(=O)[C@H](CC(=O)O)NC(=O)CNC(=O)[C@H](CCCNC(=N)N)NC2=O)NC(=O)[C@@H](Cc2ccccc2)NC(=O)[C@H](CC(=O)O)NC(=O)CNC1=O [indium-111 labelled]; system = female athymic nude mice, muscle; conditions = intravenous, 3 µCi, 1 h, U-87 MG glioma xenograft; measurement = tissue uptake; result = 0.98 ± 0.11 %ID/g
SMILES = NC(CCS)P(=O)(O)O (racemic); target or system = PAL1 (Petroselinum crispum, UniProt P24481); test = enzyme activity, inhibitor, absorbance; conditions = pH 8.8; measurement = Ki; result = > 1000 µM
SMILES = Cc1cc(O)cc(C)c1CC(N)C(=O)NC1CCNc2c(C(=O)O)cc(Cc3ccccc3)cc21 (centres unmarked); target or system = Oprd1; test = ligand displacement, radioligand; conditions = cell membranes; measurement = Ki; result = 0.0024 µM
SMILES = C=CCOCC=C; target or system = Cytochrome P450 2E1 (CYP2E1, Homo sapiens, UniProt P05181); test = enzyme activity, inhibitor; conditions = 1 h, pH 7.4; measurement = Ki; result = 3.1 µM

For quick reference, copied from above:
SMILES = OC[C@@H]1[C@@H](O)[C@H](O)[C@@H](O)[C@H]2N[C@@H]12; target or system = GBA1 (Homo sapiens, UniProt P04062, R534H); test = enzyme activity, inhibitor; measurement = Ki; result = 6.8 µM
SMILES = CC(C)C[C@@H]1NC(=O)[C@H](Cc2ccc(O)cc2)NC(=O)[C@H](CCCNC(=N)N)NC(=O)[C@H](C(C)C)NC(=O)[C@@H]2CCCN2C(=O)[C@H](Cc2ccccc2)NC(=O)[C@H](C)NC(=O)[C@H](CC(N)=O)NC(=O)[C@H](Cc2ccc(OS(=O)(=O)F)cc2)NC(=O)[C@@H](Cc2ccccc2)NC(=O)CSC[C@@H](C(=O)NCCOCCOCC(=O)NCCOCCOCC(=O)N[C@@H](CCCCN=[N+]=[N-])C(N)=O)NC(=O)[C@H](Cc2c[nH]c3ccccc23)NC(=O)[C@H](CCCCN)NC(=O)[C@H](CCCCN)NC1=O; target or system = Nectin-4, extracellular domain (Homo sapiens, UniProt Q96NY8); test = covalent binder, SPR single-cycle kinetics, two-state model; system = PBS-T; conditions = 800 s contact, 200 s dissociation, 25 °C; measurement = Ki; result = 3.58 µM
SMILES = COc1ccc2ccc3c(c2c1)C=[N+]1C2CCCCC2[N+]2=Cc4cccc(OC)c4[O][Au-]21[O]3.F[P-](F)(F)(F)(F)F (centres unmarked); target or system = Klebsiella pneumoniae thioredoxin reductase; test = competitive inhibitor; system = carbapenem-resistant; conditions = together with: DTNB; measurement = Ki; result = 13 µM
SMILES = N=C(N)NCCC[C@@H]1NC(=O)[C@H](CCCCNC(=O)CNC(=O)CNC(=O)CNC(=O)CC[C@H](NC(=O)CCOCCOCCOCCOCCNC(=O)CC[C@H](NC(=O)CN2CCN(CC(=O)O)CCN(CC(=O)O)CCN(CC(=O)O)CC2)C(=O)NCCOCCOCCOCCOCCC(=O)N[C@@H](CCC(=O)NCC(=O)NCC(=O)NCC(=O)NCCCC[C@@H]2NC(=O)[C@@H](Cc3ccccc3)NC(=O)[C@H](CC(=O)O)NC(=O)CNC(=O)[C@H](CCCNC(=N)N)NC2=O)C(=O)NCC(=O)NCC(=O)NCC(=O)NCCCC[C@@H]2NC(=O)[C@@H](Cc3ccccc3)NC(=O)[C@H](CC(=O)O)NC(=O)CNC(=O)[C@H](CCCNC(=N)N)NC2=O)C(=O)NCC(=O)NCC(=O)NCC(=O)NCCCC[C@@H]2NC(=O)[C@@H](Cc3ccccc3)NC(=O)[C@H](CC(=O)O)NC(=O)CNC(=O)[C@H](CCCNC(=N)N)NC2=O)NC(=O)[C@@H](Cc2ccccc2)NC(=O)[C@H](CC(=O)O)NC(=O)CNC1=O [indium-111 labelled]; system = female athymic nude mice, muscle; conditions = intravenous, 3 µCi, 1 h, U-87 MG glioma xenograft; measurement = tissue uptake; result = 0.98 ± 0.11 %ID/g
